Experimental data pooled from the literature.
Each line is one published result; not all experiments were run side by side. ± gives the spread as reported.

`O=c1[nH]c(N2CCC3(CC2)CN(CCO)c2cc(F)cc(F)c23)nc2c1CCCC2` — result for body weight: “no effect” (NOD-SCID mouse, xenograft; oral, 300 mg/kg twice daily; relative to: vehicle).
`Cc1nc2ccc(S(=O)(=O)n3nc(SCc4ccc(Cl)cc4)nc3N)cc2s1`: body weight “no effect” (diet-induced obese mouse; dose not given, chronic dosing).
Under body weight, `CCN(CC)C(=O)c1ccc(-c2cc(NCCCN3CCCCC3)c3ccccc3n2)cc1` is recorded as “no effect” (mouse; food admixture, 0.01, 0.03, 0.05% w/w).
Under body weight, `CC(C)CN(CC(=O)N1CCN(CC(OCc2ccc3ccccc3c2)c2ccc(Cl)cc2Cl)CC1)CC(C)C` (stereo not drawn) is recorded as “stable” (nude mouse, MDA-MB-231 xenograft; oral gavage, 25, 50, 100 mg/kg/day, 14 days).
`COc1ccc2nc(NC(=O)c3ccc(C(N)c4ccccc4)cc3)sc2c1` (stereo not drawn): “body weight loss” under 15% (mouse xenograft; 25 mg/kg twice daily).
`Cc1ccc(CN2C(=O)/C(=N\c3ccc(Cl)cc3Br)c3ccccc32)cc1` — result for “body and organ weight”: “no effect” (C57 mouse; 10 and 20 mg/kg).
Under body weight, `C#Cc1cccc(Nc2ncnc3cc(OC)c(OCCCN4CCOCC4)cc23)c1` is recorded as “no effect” (nude mouse, A-431 xenograft; 10 and 40 mg/kg/day).
For `O=C([O-])CN1CCN(CC(=O)[O-])CCN(CC(=O)NC[C@H]2CC[C@H](C(=O)N[C@H](Cc3cnc4ccccc4c3)C(=O)NCCCC[C@H](NC(=O)N[C@@H](CCC(=O)O)C(=O)O)C(=O)O)CC2)CCN(CC(=O)[O-])CC1.[64Cu+2]`, body weight read “no effect” (ICR mouse, male; iv, 37 MBq, 14 days; relative to: saline).
Under “body weight loss”, `O=C(NCCN1C(=O)C=CC1=O)[O][Pt-2]12([O]C(=O)NCCN3C(=O)C=CC3=O)([NH2+][C@@H]3CCCC[C@H]3[NH2+]1)[O]C(=O)C(=O)[O]2` is recorded as under 10% (BALB/c mouse CT26 allograft; intravenous, equimolar to 9 mg/kg oxaliplatin, twice weekly for two weeks).
`CO.Cc1ccc2c(Cl)cc(Cl)c([O-])c2n1.Cc1ccc2c(Cl)cc(Cl)c([O-])c2n1.[Co+2].c1ccc2nc3c4cccnc4c4ncccc4c3nc2c1` has a body weight of 20.5 ± 1.3 g (HeLa xenograft, nude mouse; 2.0 mg/kg every 2 days).
Under body weight, `CC(=O)Nc1ccc(OC(=O)CCC(=O)[O][Pt-2]23([O]C(=O)CCC(=O)Oc4ccc(NC(C)=O)cc4)([NH2+][C@@H]4CCCC[C@H]4[NH2+]2)[O]C(=O)C(=O)[O]3)cc1` is recorded as “no effect” (BALB/c mouse, 4T1 tumour; dose not given).
Under body weight, `CCC(C)N(C)C(=O)c1nc(-c2cccc(C(F)(F)[18F])c2)c2ccccc2n1` (stereo not drawn) is recorded as “no effect” (healthy mouse; intravenous, dose not given, 28 days; relative to: normal saline).

For quick reference, copied from above:
`CO.Cc1ccc2c(Cl)cc(Cl)c([O-])c2n1.Cc1ccc2c(Cl)cc(Cl)c([O-])c2n1.[Co+2].c1ccc2nc3c4cccnc4c4ncccc4c3nc2c1` has a body weight of 20.5 ± 1.3 g (HeLa xenograft, nude mouse; 2.0 mg/kg every 2 days).
For `O=C([O-])CN1CCN(CC(=O)[O-])CCN(CC(=O)NC[C@H]2CC[C@H](C(=O)N[C@H](Cc3cnc4ccccc4c3)C(=O)NCCCC[C@H](NC(=O)N[C@@H](CCC(=O)O)C(=O)O)C(=O)O)CC2)CCN(CC(=O)[O-])CC1.[64Cu+2]`, body weight read “no effect” (ICR mouse, male; iv, 37 MBq, 14 days; relative to: saline).
